Assay results gathered from unrelated publications.
Numbered parts are unrelated; each lists some results of a single study. Changes are numbered by the printed parent chain.

Sample 1
Target: Interferon regulatory factor 5, full length, phosphomimetic (IRF5, Homo sapiens, UniProt Q13568-2, residues 1-514, K96S/S451D/S453D/S456D/S462D)
Method: protein-binding microarray
Form: double-stranded DNA, one strand shown
Sample: in vitro
Concentration: 250 nM
Notes: 60-bp whole probe
Added: salmon DNA 0.4 mg/ml
Baseline: random background probes
Direction: higher = stronger binding
All sequences stand within: GCCTAGCAC … GTCTTGATTCGCTTGACGCTGCTG
For `TAACATATTCTCTTCTTGCAGTGCTAG`, the log fluorescence was 0.583 z-score.
`TTAGATTGCAGTCTCGATTAGTGCTAG` gave a log fluorescence of 0.801 z-score.
The log fluorescence of `TTAGGTAGCGGTTTCGGTTAGTGCTAG` is reported as 8.02 z-score.
The log fluorescence of `GACGGACTGGATATCGGGACGTGCTAG` is reported as -0.0296 z-score.
The log fluorescence of `CCAGGTTGGGAGGGGTAGGGGTGCTAG` is reported as 0.654 z-score.
`TTAGGACTGCTTCGCCTTTAGTGCTAG` has a log fluorescence of -0.142 z-score.
The log fluorescence of `TTAGAACTGAGACAGGATTAGTGCTAG` is reported as -0.369 z-score.
For `GATGGTATCCTTCTCCTGACGTGCTAG`, the log fluorescence was 0.157 z-score.
For `TTAGGTATCGGGGTTCGGTTAGTGCTA`, the log fluorescence was 2.06 z-score.
`GACGATTTCGGGTGTCGAGACGTGCTA` has a log fluorescence of 3.28 z-score.
`TTAGATCTCGGTCTCGGTTAGTGCTAG` has a log fluorescence of 0.724 z-score.
With `TGAGATATCAGTCTCGATTAGTGCTAG` the log fluorescence was 1.34 z-score.
The log fluorescence of `TCATGTTTCCATCTCTCACTGTGCTAG` is reported as 1.39 z-score.
`AGAAGATAAGCTGCAAGAAAGTGCTAG` has a log fluorescence of 0.136 z-score.
`ATAGGTTTCTATATTTGCTTGTGCTAG` gave a log fluorescence of 2.34 z-score.
`TGAGGTCTCGGTATCGGTTAGTGCTAG` has a log fluorescence of 4.79 z-score.
With `TTAGAATTCAGTCTCGATTAGTGCTAG` the log fluorescence was 1.34 z-score.
`TTAGGTTTCGGGTTTCGGTTGGTGCTA` has a log fluorescence of 9.42 z-score.
The log fluorescence of `CTATTTTTCCCCTGCACTCAGTGCTAG` is reported as 0.884 z-score.
With `GACGAACTGGGGTTCCGAGACGTGCTA` the log fluorescence was -0.484 z-score.
`CTAATTTCCATTTTCTAAATGTGCTAG` gave a log fluorescence of 2.19 z-score.
The log fluorescence of `AGAAACTGTGAGGAGGGGAAGTGCTAG` is reported as 1.81 z-score.
The log fluorescence of `TAGTTTTCAATTTTTGCATCGTGCTAG` is reported as 1.88 z-score.
With `CCTCATCTTCCTCTGCCACAGTGCTAG` the log fluorescence was 0.267 z-score.
`TTAGGACTCGGACTGGGTTAGTGCTAG` gave a log fluorescence of -0.392 z-score.

Sample 2
Target: UBE2D1 UBC core domain (UniProt P51668)
Method: yeast two-hybrid
Sample: yeast
Notes: mostly zero background
Baseline: not given
Direction: higher = stronger interaction
B1: MKRN1 RING domain (UniProt Q9UHC7); chain FAVQRSKDMVCGICMEVVYEKANPSERRFGILSNCNHTYCLKCIRKWRSAKQFESKIIKSCPECRITSNFVIPSE
B2: TRIM4 RING domain (UniProt Q9C037); chain EAEDIQEELTCPICLDYFQDPVSIECGHNFCRGCLHRNWAPGGGPFPCPECRHPSAPAALRP
B3: TRIM5 RING domain (UniProt Q9C035); chain ILVNVKEEVTCPICLELLTQPLSLDCGHSFCQACLTANHKKSMLDKGESSCPVCRISYQPENIRP
B4: RNF111 RING domain (UniProt Q6ZNA4); chain EGTEEDTEEKCTICLSILEEGEDVRRLPCMHLFHQVCVDQWLITNKKCPICRVDIEAQLPSE
B5: TRIM13 RING domain (UniProt O60858); chain MELLEEDLTCPICCSLFDDPRVLPCSHNFCKKCLEGILEGSVRNSLWRPAPFKCPTCRKETSATGINS
B6: RNF208 RING domain (UniProt Q9H0X6); chain SSAAAGEPLECPTCGHSYNVTQRRPRVLSCLHSVCEQCLQILYESCPKYKFISCPTCRRETVLFTDYG
B7: SH3RF2 RING domain (UniProt Q8TEC5); chain DDLTLLDLLECPVCFEKLDVTAKVLPCQHTFCKPCLQRVFKAHKELRCPECRTPVFSNIEAL
B8: TRIM5 RING domain (UniProt Q9C035); chain LREVKLSPEGQKVDHCARHGEKLLLFCQEDGKVICWLCERSQEHRGHHTFLTEEVAREYQVKL
B9: TRIML1 RING domain (UniProt Q8N9V2); chain LMENLREELTCFICLDYFSSPVTTECGHSFCLVCLLRSWEEHNTPLSCPECWRTLEGPHFQS
Construct (chain): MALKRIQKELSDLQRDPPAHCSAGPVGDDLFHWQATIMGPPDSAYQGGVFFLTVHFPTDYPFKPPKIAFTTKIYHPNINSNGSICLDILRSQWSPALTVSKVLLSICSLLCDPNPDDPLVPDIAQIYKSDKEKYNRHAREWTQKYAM
For `B1 (MKRN1 RING domain)`, “lacZ reporter activity” read 0.
`VEPSEENSKDCVVCQNGTVNWVLLPCRHTCLCDGCVKYFQQCPMCRQFVQESFALC (CGRRF1 RING domain (UniProt Q99675))`: “lacZ reporter activity” 0.
`B2 (TRIM4 RING domain)` — result for “lacZ reporter activity”: 0.
Under “lacZ reporter activity”, `B3 (TRIM5 RING domain)` is recorded as 0.
`B4 (RNF111 RING domain)` — result for “lacZ reporter activity”: 14200.
Under “lacZ reporter activity”, `DHGAVGQEMCCPICCSEYVKGEVATELPCHHYFHKPCVSIWLQKSGTCPVCRCMFPPPL (PJA1 RING domain (UniProt Q8NG27))` is recorded as 0.
For `B5 (TRIM13 RING domain)`, “lacZ reporter activity” read 0.
`ASLPTSEEDLCPICYAHPISAVFQPCGHKSCKACINQHLMNNKDCFFCKTTIVSVEDWE (RNF123 RING domain (UniProt Q5XPI4))` — result for “lacZ reporter activity”: 0.
`B6 (RNF208 RING domain)`: “lacZ reporter activity” 0.
`B7 (SH3RF2 RING domain)`: “lacZ reporter activity” 0.
`PAELEVQASECVVCLEREAQMIFLNCGHVCCCQQCCQPLRTCPLCRQDIAQRLRIY (LRSAM1 RING domain (UniProt Q6UWE0))` — result for “lacZ reporter activity”: 0.
Under “lacZ reporter activity”, `B8 (TRIM5 RING domain)` is recorded as 0.
For `B9 (TRIML1 RING domain)`, “lacZ reporter activity” read 0.

Sample 3
Target: CCNE2, cyclin fold, Cln2 fusion (human)
Method: yeast growth competition, sequencing
Sample: yeast
Notes: strong parent motif
Baseline: not given
Direction: higher = stronger binding
Starting sequence: E2F1 docking peptide (human); PPVKRRLDFETDH
Under “normalised enrichment score”, `PPVKQRLDFETDH [R5Q]` is recorded as 0.214.
`PPVKRRLDFETEH [D12E]` — result for “normalised enrichment score”: 5.78.
For `PPVTRRLDFETDH [K4T]`, “normalised enrichment score” read 2.56.
For `PPVKRRLDFEYDH [T11Y]`, “normalised enrichment score” read 5.74.
`PPVKRRLCFETDH [D8C]` — result for “normalised enrichment score”: 6.09.
`PPVKRRLIFETDH [D8I]`: “normalised enrichment score” 5.09.
`PPVARRLDFETDH [K4A]`: “normalised enrichment score” 4.14.
`PPVKRRLDFYTDH [E10Y]`: “normalised enrichment score” 5.67.
Under “normalised enrichment score”, `PPVKRRLDFEPDH [T11P]` is recorded as 5.66.
For `PPVKRRLDIETDH [F9I]`, “normalised enrichment score” read 0.319.
`PPVKERLDFETDH [R5E]`: “normalised enrichment score” -0.363.
`PPVKRRLDFECDH [T11C]` — result for “normalised enrichment score”: 5.64.
For `PPCKRRLDFETDH [V3C]`, “normalised enrichment score” read 5.2.
`PPVKRRLDFETMH [D12M]` — result for “normalised enrichment score”: 6.58.
`PPVKRPLDFETDH [R6P]`: “normalised enrichment score” -0.136.
`PPVKDRLDFETDH [R5D]` — result for “normalised enrichment score”: -0.183.
For `PPVKRRLDFETWH [D12W]`, “normalised enrichment score” read 6.75.
`PPTKRRLDFETDH [V3T]` — result for “normalised enrichment score”: 4.27.
Under “normalised enrichment score”, `PPVKRRLDFLTDH [E10L]` is recorded as 5.37.
Under “normalised enrichment score”, `PPVKLRLDFETDH [R5L]` is recorded as 0.175.
`PPVKRRLDFETFH [D12F]`: “normalised enrichment score” 6.69.
`PPVKRRLDGETDH [F9G]`: “normalised enrichment score” 0.195.
Under “normalised enrichment score”, `PPVKRRLFFETDH [D8F]` is recorded as 7.08.
`PPAKRRLDFETDH [V3A]`: “normalised enrichment score” 4.43.
`PQVKRRLDFETDH [P2Q]`: “normalised enrichment score” 5.22.

Sample 4
Target: NFIL3, bZIP domain (human)
Method: DHFR protein complementation
Sample: yeast
Notes: single substitutions, most at no-binding floor
Baseline: wild-type JUN-FOS pair
Direction: higher = stronger binding
Starting sequence: JUN, bZIP domain (human); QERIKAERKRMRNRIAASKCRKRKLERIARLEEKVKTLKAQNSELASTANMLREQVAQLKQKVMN; partner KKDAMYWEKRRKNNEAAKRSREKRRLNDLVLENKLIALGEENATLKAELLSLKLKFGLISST
The binding fitness of `M51G` is reported as -1.44 natural log.
The binding fitness of `K34Q` is reported as -1.4 natural log.
`V56F` has a binding fitness of -1.3 natural log.
`Q55F` gave a binding fitness of -1.44 natural log.
With `K39D` the binding fitness was -1.28 natural log.
`R30P` has a binding fitness of -1.36 natural log.
`V35H` has a binding fitness of -1.34 natural log.
With `E44A` the binding fitness was -1.5 natural log.
`L52R` has a binding fitness of -1.53 natural log.
`Q58P` gave a binding fitness of -1.36 natural log.
`Q41A` has a binding fitness of -1.53 natural log.
With `A57P` the binding fitness was -1.48 natural log.
`S43D` gave a binding fitness of -1.49 natural log.
With `A46P` the binding fitness was -1.47 natural log.
For `E54T`, the binding fitness was -1.46 natural log.
`S47A` has a binding fitness of -1.32 natural log.

Sample 5
Target: Histone acetyltransferase KAT6A, both winged helices, GST fusion (KAT6A, Homo sapiens, UniProt Q92794, residues 1-181)
Method: protein binding microarray
Form: double-stranded DNA, one strand shown
Sample: in vitro
Concentration: not given
Notes: 8-mer, flanks averaged, mean of 2 arrays, mostly near background
Baseline: not given
Direction: higher = stronger binding
Residues (chain): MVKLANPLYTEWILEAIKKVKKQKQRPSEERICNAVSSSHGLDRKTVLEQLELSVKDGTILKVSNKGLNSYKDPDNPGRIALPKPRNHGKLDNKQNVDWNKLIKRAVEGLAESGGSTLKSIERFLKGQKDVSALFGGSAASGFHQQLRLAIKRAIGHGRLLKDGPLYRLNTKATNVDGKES
`GCGATGCC` gave an E-score of 0.122.
`AGTAACGG` has an E-score of 0.145.
`CATTCCGC` has an E-score of 0.173.
`ACGATGGA` has an E-score of 0.0345.
With `GCTCTTAC` the E-score was 0.0236.
The E-score of `CCGTGGAC` is reported as 0.217.
With `AGCGATGC` the E-score was 0.0887.
For `ACGAGACA`, the E-score was -0.131.
`AGGTGATG` gave an E-score of -0.148.
`CCTCGAAC` gave an E-score of -0.104.
`GTTCCTCA` gave an E-score of -0.0167.
With `CATTGAGC` the E-score was 0.0334.
For `AGGACCGA`, the E-score was 0.0101.
`AATAGCTC` has an E-score of -0.133.
For `AGGTGCAC`, the E-score was -0.114.
For `TCGCTCCA`, the E-score was 0.0576.
For `AGCGCAAC`, the E-score was 0.241.
`AAAGGGCA` gave an E-score of -0.127.
The E-score of `GCTTGCGA` is reported as 0.196.
`ACAACGAT` gave an E-score of 0.0979.
The E-score of `AGATTCTA` is reported as -0.103.
With `CATACCTC` the E-score was -0.139.

Sample 6
Target: ABI1, truncated, D143A, DHFR fusion (Arabidopsis thaliana)
Method: DHFR PCA, deep sequencing
Sample: yeast
Notes: methotrexate growth selection, single substitutions
Added: (+)-ABA 0.0091 µM
Baseline: wild-type fitted maximum
Direction: higher = stronger binding
Starting sequence: PYL1, truncated, DHFR fusion (Arabidopsis thaliana); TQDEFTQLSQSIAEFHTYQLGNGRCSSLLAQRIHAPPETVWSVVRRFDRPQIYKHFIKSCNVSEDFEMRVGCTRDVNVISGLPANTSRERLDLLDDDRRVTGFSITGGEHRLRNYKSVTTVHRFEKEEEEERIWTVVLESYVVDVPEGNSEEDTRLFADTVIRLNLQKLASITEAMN
`Y115N` — result for “relative binding score”: 3.94%.
Under “relative binding score”, `S150F` is recorded as -0.428%.
For `N61I`, “relative binding score” read 47.5%.
`S104C`: “relative binding score” -4.09%.
`E128R` — result for “relative binding score”: 13.3%.
`A35N` — result for “relative binding score”: -5.42%.
`P83V` — result for “relative binding score”: 5.91%.
`V145F` — result for “relative binding score”: -7.43%.
`R74M`: “relative binding score” 0.128%.
`V118A` — result for “relative binding score”: 15.8%.
`R99H`: “relative binding score” 61%.

Repeated from above (sample 6):
Under “relative binding score”, `S150F` is recorded as -0.428%.
`P83V` — result for “relative binding score”: 5.91%.
`S104C`: “relative binding score” -4.09%.
`V145F` — result for “relative binding score”: -7.43%.
`R99H`: “relative binding score” 61%.
`R74M`: “relative binding score” 0.128%.
`A35N` — result for “relative binding score”: -5.42%.
`Y115N` — result for “relative binding score”: 3.94%.
